Measured values pooled from the literature.
A part holds a random share of what one study measured. Positions count from the first letter of the parent shown.

Block 1 — technique: Sort-seq; item: YFP reporter; sample: E. coli; notes: PhoQ-PhoP variant library; added: 10 µM Mg2+; reference: high Mg2+ state; reading: higher = stronger signaling; quantity: fold induction
Substance: PhoQ, residues 284 288 289 292 302 303 NSMLDC
PhoP, residues 12 14 15 18 19 HHYTI (Escherichia coli, UniProt P23836): 1.46
PhoP, residues 12 14 15 18 19 AYFRS (Escherichia coli, UniProt P23836): 28.5
PhoP, residues 12 14 15 18 19 SFCSL (Escherichia coli, UniProt P23836): 12.3

Block 2 — target: CCNB1, cyclin fold, Cln2 fusion (human); technique: yeast growth competition, sequencing; sample: yeast; notes: weak parent motif; reference: not given; reading: higher = stronger binding; quantity: normalised enrichment score
Starting sequence: WEE1 docking peptide (human); HKTFRKLRLFDTP
F10P: 1.23
F10S: -0.0637
P13M: 1.67
T12C: -0.156
F10G: 0.108
R8H: 1.15
D11A: 0.542
R5S: 0.548
D11G: -0.737
L7K: 0.721
K2S: 0.301
T3D: -0.15
T3Y: -2.22
L9Y: 1.27
T12N: 1.16
K2T: 1.42
R5F: -0.209

Block 3 — technique: DHFR PCA, deep sequencing; sample: yeast; added: (+)-ABA 1.4 µM; reference: wild-type fitted maximum; reading: higher = stronger binding; quantity: relative binding score
Target: ABI1, truncated, D143A, DHFR fusion (Arabidopsis thaliana)
Notes: methotrexate growth selection, single substitutions
Starting sequence: PYL1, truncated, DHFR fusion (Arabidopsis thaliana); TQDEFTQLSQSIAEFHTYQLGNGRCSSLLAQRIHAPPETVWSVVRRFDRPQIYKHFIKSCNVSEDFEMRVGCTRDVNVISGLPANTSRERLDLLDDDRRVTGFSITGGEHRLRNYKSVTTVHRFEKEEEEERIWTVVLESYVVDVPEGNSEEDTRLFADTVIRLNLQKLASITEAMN; partner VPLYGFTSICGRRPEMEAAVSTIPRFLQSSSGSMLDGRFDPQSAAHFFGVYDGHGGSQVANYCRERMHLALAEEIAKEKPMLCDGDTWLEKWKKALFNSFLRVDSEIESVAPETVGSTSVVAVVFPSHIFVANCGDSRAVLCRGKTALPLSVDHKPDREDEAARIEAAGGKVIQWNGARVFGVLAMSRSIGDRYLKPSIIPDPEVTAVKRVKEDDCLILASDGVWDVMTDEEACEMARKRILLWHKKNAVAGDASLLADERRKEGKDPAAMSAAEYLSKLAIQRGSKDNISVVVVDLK
L138E: -7.44%
E151Q: 42.8%
R98G: 10.5%
V62S: 8.3%
I133W: 38.6%
V118W: 5.75%
S11G: 31.7%
S140V: 9.02%
S9I: 16.6%
L169S: -3.09%
V121C: 13.8%
I172D: -12.3%
D97S: 56.4%
L93Q: 38.6%

Block 4 — technique: RNAcompete; molecule type: RNA; sample: in vitro; concentration: 20 nM; notes: 7-mer, probes averaged, single round; reference: mean of 7-mers; reading: higher = stronger binding; quantity: 7-mer Z-score
Target: PABPC1L2, full length, GST fusion (mouse, UniProt A0ABA7IW68)
Target sequence (chain): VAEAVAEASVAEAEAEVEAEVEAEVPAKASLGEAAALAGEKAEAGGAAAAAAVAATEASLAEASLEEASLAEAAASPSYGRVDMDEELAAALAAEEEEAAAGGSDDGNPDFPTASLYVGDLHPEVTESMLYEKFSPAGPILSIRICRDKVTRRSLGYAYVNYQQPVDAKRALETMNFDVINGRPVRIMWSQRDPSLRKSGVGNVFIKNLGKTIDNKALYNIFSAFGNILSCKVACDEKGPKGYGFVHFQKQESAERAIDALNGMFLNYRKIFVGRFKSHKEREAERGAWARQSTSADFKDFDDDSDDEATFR
AGGGGCC: 0.253
UCGACAG: -0.153
ACGCCAU: -0.0826
UGUUCUC: -0.387
GACCGCC: -0.309
ACUAGCU: -0.266
UCGAGGA: 0.046
GUUUCCC: -0.469
UCGACGA: -0.122
UGUGGGC: -0.0264
UUGUUUU: -0.365
CUCCGCU: -0.342
CGUGCUG: -0.226
UACCACC: -0.244
UUGUCGA: -0.258
GCCGUCU: -0.269

Repeated from above (block 2):
P13M: 1.67
K2S: 0.301
T12N: 1.16
R8H: 1.15
T12C: -0.156
R5S: 0.548
